Experimental data collected from several papers.
Every numbered part comes from another study and shows a few of its results, in no order.

Sample 1 — method: RNA Bind-n-Seq; form: RNA; sample: in vitro; concentration: 1 µM; notes: whole 134-nt RNA, ends assumed; added: 150 mM KCl; baseline: input library; direction: higher = stronger binding; endpoint: log2 enrichment
Target: Ras GTPase-activating protein-binding protein 1, C-terminal RGG region (G3BP1, Homo sapiens, UniProt Q13283)
Sequence of UniProt Q13283 (whole entry, looked up): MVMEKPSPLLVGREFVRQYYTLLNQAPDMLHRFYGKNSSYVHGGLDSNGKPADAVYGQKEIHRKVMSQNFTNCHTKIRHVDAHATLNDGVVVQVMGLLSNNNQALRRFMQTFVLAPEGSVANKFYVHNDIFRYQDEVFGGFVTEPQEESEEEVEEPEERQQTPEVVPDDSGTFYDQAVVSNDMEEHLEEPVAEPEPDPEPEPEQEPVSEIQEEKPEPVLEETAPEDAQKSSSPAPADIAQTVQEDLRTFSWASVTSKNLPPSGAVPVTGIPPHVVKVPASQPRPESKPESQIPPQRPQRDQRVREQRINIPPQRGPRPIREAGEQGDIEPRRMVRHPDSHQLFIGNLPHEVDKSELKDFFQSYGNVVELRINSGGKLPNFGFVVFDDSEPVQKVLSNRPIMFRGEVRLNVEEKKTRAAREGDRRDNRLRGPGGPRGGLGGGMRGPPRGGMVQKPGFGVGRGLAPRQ
GGGAGUUCUACAGUCCGACGAUCAGUCCUGUGCUACACAUCGUAUGUACCGAAUCGGGAAAAAGGGUUUGGGAAAAAGGGAAAGUAUUAUGUUACGCCGUUCGGAUCUGCACUUGGAAUUCUCGGGUGUCAAGG: 0.234
GGGAGUUCUACAGUCCGACGAUCAAGUCCUGUGCUACACAUCGUAUGUACCGAAUCGGGAAAGGGUUUGGGAAAAAGGGAAAGUAUUAUGUUACGCCGUUCGGAUCUGCACUUUGGAAUUCUCGGGUGUCAAGG: 0.848
GGGAGUUCUACAGUCCGACGAUCGCAGGAAGUAAAAACAAAUGGAAAUGCUUCGGAUAGUGGCAGGGGUGGGGGUUGCUAAGGAAAGGGUGGGAUGGGAGUGGGUAAUGAGUUUGGAAUUCUCGGGUGUCAAGG: 1.02

Sample 2 — method: protein-binding microarray; form: double-stranded DNA, one strand shown; sample: in vitro; concentration: 0.8 µM; notes: whole 60-bp probe, no competitor; direction: higher = stronger binding; endpoint: fluorescence intensity
Target: Centromere-binding protein 1, full length, N-terminal tag (CBF1, Saccharomyces cerevisiae, UniProt P17106, residues 1-351)
Sequence of UniProt P17106 (whole entry, looked up): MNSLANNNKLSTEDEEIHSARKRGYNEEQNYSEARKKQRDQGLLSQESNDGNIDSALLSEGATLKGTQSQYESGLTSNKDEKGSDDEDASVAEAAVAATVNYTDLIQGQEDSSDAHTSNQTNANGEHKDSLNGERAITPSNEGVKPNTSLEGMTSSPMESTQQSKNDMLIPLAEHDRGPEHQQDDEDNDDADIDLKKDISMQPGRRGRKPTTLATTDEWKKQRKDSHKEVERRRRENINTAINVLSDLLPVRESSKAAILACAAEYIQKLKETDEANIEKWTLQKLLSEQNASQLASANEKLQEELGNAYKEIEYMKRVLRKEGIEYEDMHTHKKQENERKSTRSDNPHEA
TGTACGAAGCTATATGCACGTGTTATAGTAGTTAGGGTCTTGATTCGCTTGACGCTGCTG: 8930 a.u.
GAACTAGAGAGCGAATACGTGCTCTGTAATTGTTAGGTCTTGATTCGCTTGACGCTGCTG: 562 a.u.
GAAAGGGTGGAAGGACATCAGGCATAAGGAAGTTAGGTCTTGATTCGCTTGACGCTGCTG: 530 a.u.
CTAGCGCGTGAACATCACGACGCGCCTTCCCGTTTCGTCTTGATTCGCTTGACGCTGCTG: 589 a.u.
CCTAACTACTATAGTGGTGTCCCATAGCTTCGTACAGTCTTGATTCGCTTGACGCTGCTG: 495 a.u.

Sample 3 — method: universal PBM; form: double-stranded DNA, one strand shown; sample: in vitro; concentration: not given; direction: higher = stronger binding; endpoint: E-score
Target: Sal-like protein 4, full length isoform B (SALL4, Homo sapiens, UniProt Q9UJQ4-2, residues 1-616)
Notes: 8-mer, flanks averaged, mean of replicates
Target sequence (chain): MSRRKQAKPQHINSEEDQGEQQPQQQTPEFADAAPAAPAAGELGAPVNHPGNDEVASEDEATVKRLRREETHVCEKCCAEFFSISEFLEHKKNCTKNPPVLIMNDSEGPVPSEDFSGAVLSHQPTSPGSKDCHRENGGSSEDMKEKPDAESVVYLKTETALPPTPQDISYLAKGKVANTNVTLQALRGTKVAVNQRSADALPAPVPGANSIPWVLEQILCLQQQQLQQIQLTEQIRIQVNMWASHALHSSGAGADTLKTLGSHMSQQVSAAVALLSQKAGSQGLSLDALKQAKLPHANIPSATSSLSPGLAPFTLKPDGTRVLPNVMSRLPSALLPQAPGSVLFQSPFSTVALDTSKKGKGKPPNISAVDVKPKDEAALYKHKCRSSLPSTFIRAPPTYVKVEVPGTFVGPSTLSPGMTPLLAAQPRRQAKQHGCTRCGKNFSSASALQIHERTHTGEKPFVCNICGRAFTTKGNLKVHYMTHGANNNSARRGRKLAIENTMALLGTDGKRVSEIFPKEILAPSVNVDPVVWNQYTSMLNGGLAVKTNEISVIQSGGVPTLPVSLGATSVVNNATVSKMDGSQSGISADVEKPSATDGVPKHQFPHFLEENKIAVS
GACTTAGA: -0.042
AACAAAGA: 0.196
CAGACGAC: -0.198
CGAGATAG: -0.266
ATCCGCAC: -0.0762
CGTCCAAC: 0.0198
GTACCGAA: -0.0958

Single results of other studies
PhoQ, residues 284 288 289 292 302 303 GLASVI
fold induction (PhoP, residues 12 14 15 18 19 TQAML (Escherichia coli, UniProt P23836); Sort-seq, item: YFP reporter; E. coli; PhoQ-PhoP variant library, added: 10 µM Mg2+; baseline: high Mg2+ state, higher = stronger signaling): 1.82
